Measurements gathered from unrelated publications.
Parts stem from different laboratories: compare values within a part only. Positions count from the first letter of the parent shown.

Set 1
Target: Fragile X messenger ribonucleoprotein 1, C-terminal low-complexity region (Fmr1, Mus musculus, UniProt P35922)
Technique: RNA Bind-n-Seq
Molecule type: RNA
Matrix: in vitro
Concentration: 200 nM
Notes: whole 134-nt RNA, ends assumed
Added: 150 mM LiCl
Baseline: input library
Reading: higher = stronger binding
All molecules: 7-deaza-guanosine replaces G
Shared flanks, not repeated: GGGAGUUCUACAGUCCGACGAUC … UGGAAUUCUCGGGUGUCAAGG
Sequence | log2 enrichment
CCUCAAGUCCUGUGCUACACAUCGUAUGUACCGAAUCGGGAGGGAGGGGAGGGAAAGUAUUAUGUUACGCCGUUCGGAUCUGCACUUCCA | -1.26
AGUCCUGUGCUACACAUCGUAUGUACCGAAUCGGGAAAAAGGAAAAAGGGAAAAAGGGAAAGUAUUAUGUUACGCCGUUCGGAUCUGCAC | -1.12
UCAAGUCCUGUGCUACACAUCGUAUGUACCGAAUCGGGAAAGGGUGGGUUUGGGAAAGUAUUAUGUUACGCCGUUCGGAUCUGCACUUCC | -1.48
UGGAUCAAGAGGAAGUAAAAAGAAUUACCAGUCACAGGCUGACAUUCCCAUUCGGUCUCCCUUUGGUAUUGUGAAAGCAUCCUGGCUACC | 0.274
ACCAUGCAGGUGGGCAUCUUUGGGAAGUGGGGCAAGGGGGGGAUAGGGAGGGGGGUAACACUUUGGGAACAGGUGGUCCCAGGACGUUUC | 0.979
GCUGUUGGAGUGGAUCCGCCGCACAAUCCCGUGGCUGGAGAACCGGGUGCCCGAGAACACCAUGCAUGCCAUGCAACAGAAGCUGGAGGA | -3.99
GCAGGAAGUAAAAACAAAUGGAAAUACUUCGGAUAGUGGCAGGGGUGGGGGUUGCUAAGGAAAGGGUGGGAUGGGAGUGGGUAAAGAGUU | 1.41
CUGAAGAGUCUGAGGAUGCCCAAUCACAGAGCCAAGCAGAUGAAGAGGAGGAAGAUGAUGAUUUUGGGGUGGAGUACUUGCUUGCCAGGG | -0.977
CUGUGCUACACAUCGUAUGUACCGAAUCGGGCCCCCCCGGCCCCCCCGGGCCCCCCCGGGGAAAGUAUUAUGUUACGCCGUUCGGAUCUG | 0.233
GCAGGAAGUAAAAACAAAUGGAAAUGCUUCGGAUAGUGGCAGGGGUGGGGGUUGCGAAGGAAAGGGUGGGAUGGGAGUGGGUAAAGAGUU | 1.1
GCAGGAAGUAAAAACAAAUGGAAAUGCUUCGGAUAGUGGCAGGGGUGGGGGUUGCUAAGGAAAGGAAAGGAUGGGAGUGGGUAAAGAGUU | 1.68

Set 2
Target: ABI1, truncated, D143A, DHFR fusion (Arabidopsis thaliana)
Technique: DHFR PCA, deep sequencing
Matrix: yeast
Notes: methotrexate growth selection, single substitutions
Added: (+)-ABA 58 µM
Baseline: wild-type fitted maximum
Reading: higher = stronger binding
Starting sequence: PYL1, truncated, DHFR fusion (Arabidopsis thaliana); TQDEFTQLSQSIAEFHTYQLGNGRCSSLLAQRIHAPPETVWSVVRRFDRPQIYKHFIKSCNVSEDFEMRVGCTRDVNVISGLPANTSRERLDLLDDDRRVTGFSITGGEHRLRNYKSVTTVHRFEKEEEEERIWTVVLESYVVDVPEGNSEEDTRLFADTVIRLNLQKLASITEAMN
Substitution | relative binding score [%]
E139T | 90.1
L138K | -20.3
R123P | 86.9
T101W | 13.3
T39Y | 79.5
D159S | 64
P37R | 11.7
R46L | 58.1
Y53N | 1.89
T135Q | -2.81
L169M | 35.5
V76N | 32.2
L28S | 22.9
R32D | 56.4
E89G | -3.74

Set 3
Target: CCNF, cyclin fold, Cln2 fusion (human)
Technique: yeast growth competition, sequencing
Matrix: yeast
Notes: weak parent motif
Baseline: not given
Reading: higher = stronger binding
Starting sequence: MASTL docking peptide (human); PMIAKNLMCELDE
Substitution | normalised enrichment score
PMIAKNEMCELDE [L7E] | 0.0976
PMIAKNLMSELDE [C9S] | -0.0653
PMIAKALMCELDE [N6A] | -0.195
PMIAKGLMCELDE [N6G] | -0.73
PMIAKNLMCELAE [D12A] | 0.144
PMIAKNLMCELYE [D12Y] | -0.0175
PMIAKNLMCELHE [D12H] | 0.307
PMFAKNLMCELDE [I3F] | -0.247
PMIAKNLMCEQDE [L11Q] | 0.0919
PMIAKNLMCEIDE [L11I] | 0.369
PMIAKNLMCRLDE [E10R] | 0.458
PMIASNLMCELDE [K5S] | -0.523
PMIAKNLMKELDE [C9K] | 0.277
PMIAKNLECELDE [M8E] | -0.384
PMIAKPLMCELDE [N6P] | -0.512
PMIAKNLMCDLDE [E10D] | -0.0616
PMSAKNLMCELDE [I3S] | -0.0836
PMIAKNCMCELDE [L7C] | -0.524
PMIAKNLMCEFDE [L11F] | -0.152
PMIAKRLMCELDE [N6R] | 0.627
PMCAKNLMCELDE [I3C] | 0.266
PMGAKNLMCELDE [I3G] | 0.193
PMIAKNLMCELEE [D12E] | -0.239
PMIAKNLMCNLDE [E10N] | 0.16
PMIAHNLMCELDE [K5H] | 0.137

Set 4
Target: RNA binding protein fox-1 homolog 2, RRM domain, GST-SBP tag (RBFOX2, Homo sapiens, UniProt O43251-10, residues 100-194)
Technique: RNA Bind-n-Seq
Molecule type: RNA
Matrix: in vitro
Concentration: 365 nM
Notes: natural RNA segment, single round, ends assumed
Baseline: no-protein control
Reading: higher = stronger binding
Shared flanks, not repeated: GGGAGUUCUACAGUCCGACGAUC … UGGAAUUCUCGGGUGCCAA
Target sequence (chain): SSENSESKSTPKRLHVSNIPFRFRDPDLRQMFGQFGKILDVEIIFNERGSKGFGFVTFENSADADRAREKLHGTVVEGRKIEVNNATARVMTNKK
Sequence | RBNS enrichment (R)
AGGGACCUCCUCCUUAUUUCUGACUCAUAUCUAAGUAAGGUUCCCCAGGACAGCCACAGUUGUACUGAGGGGGGCUGACAUGUUUGGCAUCCUGGCUAUAGUAUUGUAUA | 0.409
CAAUUCACAGCACAGUACACACAAAAACCUUGGCAUAAGACAGAGAAGGUUCUUCUUAUUUUGUGGGCUGGUUGCUGUAGAAACACAUAACAAAGGGCAGCCCUCCACUU | 0.969
CCAUUAAUGAUUCAUCCGCACCAAUGAAGAAGUUGUAACUAACUAGCAUGCUGCGCAGACACUGGCAUAGCAUGCCCUGGGUACACUAACACUCACCUGCUCCCUUUCGU | 0.709
CUCAACUUGAAUCAUGACAGCCCAUCGCUCAGUCUCACCCUAAACUCAUGGAGCUUGUUUCAGCUCCUCACUUCUUGACUGUAUUUGUACUAUGUUGAAAAAAUAUCCUG | 0.414
GGAUUUGGGGAGGGCCCUGAGGACCUGGCCCCGGGCAAGGGACUCUCCAGGCUCCUCCUCCCCCUGGCAGGCCCAGCAACAUGUGCCCCAGAUCUGGAAGGGCCUCCCUC | 0.229
UUGGGUGGAGGCAAAACACUAAUAAAAGGGCUAAAAAGGAAAAUGAUGCUUUUCUUCUAUAUUCUUACUCUGUACAAAUAAAGAAGUUGCUUGUUGUUUGAGAAGUUUAA | 0.854
GUCAUCGACCUGUAGCACUGGCUGCAUGGCCACUGCUGUGGUUCUGUAGAACAUCCGCCAUGCCGUCCCAGCUGGCGGAGGGGGAGCUGCCCACCUAGCUGGGUUUGGAC | 0.539
GCCUUGAUCUCUCCAUGCCCCACCUUAAGUGGUAAGCAUGUUUAAUUAUCAAAGGCCCCAUUUGUCAGGGGUGAGAGAAAAGUCAAAAGAUAAAUUGGGGCCUUGUAAAA | 0.619
AACGCCACCUUCUGAGGAGAGCUCCACCCUCCUCUUCUCCUAACUCCAUCUGAUCGUCCUUUCAGUUUCCCCUUCACCACUGGAUCUCGAGGAGGAGAUGGCCUAGUGUU | 0.377
UGUGGCUUGUGGCUCAUGCGCCAUUCCUGGUUGUCUGUUGAAUCUUUCUGGCUGCUGGAAUUGGAGAUAGGAUGUUUUGCUUCCCACUGCAGGAGAGCUGCCCCCUUUCA | 0.269
CGGCCCUACCAUGGCAUGCAUGGAGGUGGUCCUGGUGGUCCUGGAGGUGGCCCCCACAGCUUCCCACACCCAUUACCCAGCCUGACAGGUGGGCAUGGUGGGCAUCCCAU | 1.87
UCAUCUCAUAAUAGAAACACAUUCGUAUUCUAAUGAUCAAUCUAAAGUUCCCGUUGAGGAGGAGGCCCUUCAAUUGAGACUGUCCAGAGCUGUGACAAUGCACCAUAUUG | 0.52

Further values, each from its own experiment
Molecule | target | test | test system | conditions | scale | measurement | result
PhoQ, residues 284 288 289 292 302 303 ASASEQ | PhoP, residues 12 14 15 18 19 NQFFI (Escherichia coli, UniProt P23836) | Sort-seq, refers to: YFP reporter | E. coli | PhoQ-PhoP variant library, added: 10 µM Mg2+ | baseline: high Mg2+ state, higher = stronger signaling | fold induction | 0.99
